Measurements of several laboratories.
Parts stem from different laboratories: compare values within a part only. “And” joins repeats or separate records; there may be more than shown.
Chain of UniProt P28221 (whole entry, looked up): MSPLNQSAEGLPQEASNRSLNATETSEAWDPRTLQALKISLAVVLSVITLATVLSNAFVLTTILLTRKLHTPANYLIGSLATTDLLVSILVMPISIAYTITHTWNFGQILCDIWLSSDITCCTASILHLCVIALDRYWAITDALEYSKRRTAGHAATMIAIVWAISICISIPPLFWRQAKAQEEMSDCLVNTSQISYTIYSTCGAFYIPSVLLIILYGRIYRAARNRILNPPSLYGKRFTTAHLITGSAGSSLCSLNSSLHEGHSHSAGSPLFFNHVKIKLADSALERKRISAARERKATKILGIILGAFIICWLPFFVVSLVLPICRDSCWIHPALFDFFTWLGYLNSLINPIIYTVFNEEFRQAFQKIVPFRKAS
Chain of UniProt P47898 (whole entry, looked up): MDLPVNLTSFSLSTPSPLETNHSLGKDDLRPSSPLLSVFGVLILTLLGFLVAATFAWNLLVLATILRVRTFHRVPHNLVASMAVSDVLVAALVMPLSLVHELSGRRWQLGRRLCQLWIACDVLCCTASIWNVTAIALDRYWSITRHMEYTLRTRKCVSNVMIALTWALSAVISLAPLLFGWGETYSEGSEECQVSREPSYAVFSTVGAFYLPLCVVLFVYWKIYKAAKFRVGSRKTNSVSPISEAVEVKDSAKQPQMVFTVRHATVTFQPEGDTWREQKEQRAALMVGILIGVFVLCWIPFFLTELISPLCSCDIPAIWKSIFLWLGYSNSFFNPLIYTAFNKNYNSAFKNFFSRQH
Chain of UniProt P41595 (whole entry, looked up): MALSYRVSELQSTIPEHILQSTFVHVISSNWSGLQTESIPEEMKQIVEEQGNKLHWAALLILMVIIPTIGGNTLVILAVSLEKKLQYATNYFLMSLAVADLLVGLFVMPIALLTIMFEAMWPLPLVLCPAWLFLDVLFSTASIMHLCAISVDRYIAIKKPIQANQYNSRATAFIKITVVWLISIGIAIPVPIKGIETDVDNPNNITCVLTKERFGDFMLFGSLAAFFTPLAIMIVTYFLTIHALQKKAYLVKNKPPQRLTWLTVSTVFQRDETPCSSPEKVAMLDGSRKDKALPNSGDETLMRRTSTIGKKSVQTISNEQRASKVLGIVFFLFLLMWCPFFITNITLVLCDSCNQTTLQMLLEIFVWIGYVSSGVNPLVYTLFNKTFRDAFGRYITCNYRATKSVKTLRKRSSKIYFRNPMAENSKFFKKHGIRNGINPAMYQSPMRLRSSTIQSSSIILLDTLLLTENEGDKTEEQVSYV
Chain of UniProt P46098 (whole entry, looked up): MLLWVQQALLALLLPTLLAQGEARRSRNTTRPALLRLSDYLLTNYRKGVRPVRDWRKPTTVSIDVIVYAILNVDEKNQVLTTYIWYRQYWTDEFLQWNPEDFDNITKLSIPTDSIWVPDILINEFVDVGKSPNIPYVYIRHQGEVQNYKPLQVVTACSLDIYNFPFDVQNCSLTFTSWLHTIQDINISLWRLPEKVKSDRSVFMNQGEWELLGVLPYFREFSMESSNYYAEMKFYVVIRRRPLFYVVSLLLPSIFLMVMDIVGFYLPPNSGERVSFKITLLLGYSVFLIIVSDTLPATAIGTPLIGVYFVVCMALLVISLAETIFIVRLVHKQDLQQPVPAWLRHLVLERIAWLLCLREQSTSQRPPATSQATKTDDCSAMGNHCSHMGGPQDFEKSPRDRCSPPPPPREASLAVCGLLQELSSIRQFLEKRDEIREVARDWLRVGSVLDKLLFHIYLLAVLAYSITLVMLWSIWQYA
Chain of UniProt P28566 (whole entry, looked up): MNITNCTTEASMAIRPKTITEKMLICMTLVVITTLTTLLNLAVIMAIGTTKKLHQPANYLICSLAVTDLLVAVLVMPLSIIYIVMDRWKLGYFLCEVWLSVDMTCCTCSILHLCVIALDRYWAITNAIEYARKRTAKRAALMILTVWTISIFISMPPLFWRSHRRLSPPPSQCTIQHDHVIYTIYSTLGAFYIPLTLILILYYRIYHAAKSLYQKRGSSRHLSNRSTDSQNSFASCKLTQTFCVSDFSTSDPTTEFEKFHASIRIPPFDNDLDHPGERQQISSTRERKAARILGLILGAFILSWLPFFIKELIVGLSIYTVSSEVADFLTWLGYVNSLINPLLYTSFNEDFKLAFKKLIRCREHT

Set 1
SMILES: CC(=O)N[C@@H](Cc1c[nH]c2ccccc12)C(=O)N[C@@H](CCC(=O)C=[N+]=[N-])C(=O)OC(C)C
Species: C57BL/6 CES1-/- mice, EL4 tumour
Medium: EL4 tumour
Route: subcutaneous
Dose: 0.3 mg/kg/day DON equivalent
Time: 5 days
Endpoint: metabolite peak intensity
UPLC-MS/MS metabolomics, item: N-monomethylarginine; normalised to tissue mass; higher = more metabolite: 3.79e+07 a.u. and 3.11e+07 a.u. and 2.98e+07 a.u. and 3.89e+07 a.u. and 3.38e+07 a.u. and 3.65e+07 a.u.
LC-MS/MS metabolomics, item: 2-isopropylmalate; normalised to tissue mass; higher = more metabolite: 1.52e+07 a.u. and 2.65e+06 a.u. and 2.29e+06 a.u. and 5.33e+06 a.u. and 5.32e+06 a.u. and 2.79e+06 a.u.
LC-MS/MS metabolomics, item: 2-aminoadipate; normalised to tissue mass; higher = more metabolite: 4.84e+06 a.u. and 1.07e+07 a.u. and 3.82e+06 a.u. and 8.64e+06 a.u. and 9.89e+06 a.u. and 3.83e+06 a.u.
UPLC-MS/MS, item: 6-phosphogluconate: 319000 a.u. and 224000 a.u. and 297000 a.u. and 246000 a.u. and 225000 a.u. and 324000 a.u.
LC-MS/MS metabolomics, item: o-tyrosine; higher = more metabolite: 334000 a.u. and 710000 a.u. and 842000 a.u. and 1.21e+06 a.u. and 458000 a.u. and 418000 a.u.
LC-MS/MS metabolomics, item: 4-hydroxynonenal-glutathione; normalised to tissue mass; higher = more metabolite: 201000 a.u. and 227000 a.u. and 77300 a.u. and 259000 a.u. and 443000 a.u. and 404000 a.u.
UPLC-MS/MS metabolomics, item: N-acetylphenylalanine; normalised to tissue mass; higher = more metabolite: 86900 a.u. and 101000 a.u. and 112000 a.u. and 85600 a.u. and 73500 a.u.

Set 2
SMILES: CO[C@@H]1[C@@H](OC(N)=O)[C@@H](O)[C@H](Oc2ccc3c(O)c(NC(=O)c4ccc(O)c(CC=C(C)C)c4)c(=O)oc3c2C)OC1(C)C
Technique: CellTiter-Glo
Endpoint: viability
UWB1.289 parental; 100 µM, 6 days; baseline: untreated: 35.2%
MDA-MB-436 PARPi-resistant; 200 µM, 6 days; baseline: untreated: -0.9%
MDA-MB-436 (BRCA1-mutant); 6.3 µM, 6 days; baseline: untreated: 104% and 85.9% and 110% and 103% and 80%
MDA-MB-436 (BRCA1-mutant); 25 µM, 6 days; baseline: untreated: 81.4% and 87.9% and 81.6% and 59.5% and 82.8%
RPE-1 BRCA1-/- PARPi-resistant R3; 150 µM, 6 d: 62.7%

Set 3
Target: Beta-1 adrenergic receptor (ADRB1, Homo sapiens, UniProt P08588)
Chain of UniProt P08588 (whole entry, looked up): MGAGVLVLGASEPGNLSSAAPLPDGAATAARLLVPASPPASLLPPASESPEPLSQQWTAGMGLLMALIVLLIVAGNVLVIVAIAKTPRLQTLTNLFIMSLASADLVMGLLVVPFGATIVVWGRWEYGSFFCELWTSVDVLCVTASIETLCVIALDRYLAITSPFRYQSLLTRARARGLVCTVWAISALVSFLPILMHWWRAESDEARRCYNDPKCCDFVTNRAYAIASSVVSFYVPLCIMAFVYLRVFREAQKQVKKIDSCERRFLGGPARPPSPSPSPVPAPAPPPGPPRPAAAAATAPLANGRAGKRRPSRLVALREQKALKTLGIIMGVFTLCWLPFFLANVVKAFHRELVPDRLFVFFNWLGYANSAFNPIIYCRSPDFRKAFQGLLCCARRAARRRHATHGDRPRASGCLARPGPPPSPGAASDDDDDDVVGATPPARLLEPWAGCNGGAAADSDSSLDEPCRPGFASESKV
Mode: antagonist
Endpoint: IC50
c1cncc(-c2cc(-c3cccc(N4CCOCC4)c3)cn3cncc23)c1: ≥ 100 µM
Nc1nc2c(ncn2C2OC3COP(=O)(O)OC3C2O)c(=O)[nH]1 (centres unmarked): ≥ 100 µM
Cc1cc(=O)oc2cc(NC(=O)[C@H](CCCCN)NC(=O)[C@H](CC3CCCCC3)NC(=O)OCC3c4ccccc4-c4ccccc43)ccc12: ≥ 100 µM
c1cnc2c(CN3CCN(c4ccc5nccnc5n4)CC3)cccc2c1: ≥ 100 µM
Cn1c(=O)cc(N2CCN(c3cccc(Cl)c3)CC2)[nH]c1=O: ≥ 100 µM
Cc1ccc2c(CC(=O)N3CCOc4ccc(CN5CCOCC5)cc4C3)cc(=O)oc2c1: ≥ 100 µM
O=[S+]([O-])(N[C@H]1CO[C@H]2[C@@H]1OC[C@@H]2n1nnnc1Oc1cccc(N2CCOCC2)c1)c1cccs1: ≥ 100 µM
CC(C)NC[C@H](O)COc1ccc(O)cc1: ≥ 100 µM
O=C(Nc1ccc([C@@H](O)[C@H]2COCC(=O)N2CC2CC2)cc1)c1ccc(F)cc1: ≥ 100 µM

Set 4
Compound: COc1nc2ccc([C@@](O)(c3ccccc3)C3CCN(C(C)=O)CC3)cc2c(Cl)c1Cc1ccc(-n2cccn2)cc1
Read-out: binding
Technique: radioligand binding
Tested at: 10 µM
Endpoint: inhibition
HTR2B (Homo sapiens, UniProt P41595): 18.7%
HTR1E (Homo sapiens, UniProt P28566): -18.7%
HTR5A (Homo sapiens, UniProt P47898): -0.46%
HTR1D (Homo sapiens, UniProt P28221): 5.9%
HTR3A (Homo sapiens, UniProt P46098): 9.28%
